Published values gathered from unrelated publications.
Lines come from different studies, so protocols differ. Numbers after ± are the reported error. Values after ≈ are worked out from the molar mass of the structure shown.

| SMILES | organism | test | test system | setting | how to read | quantity | value |
| --- | --- | --- | --- | --- | --- | --- | --- |
| CS(=O)(=O)OCCN(CCBr)c1c(C(=O)NCCO)cc([N+](=O)[O-])cc1[N+](=O)[O-] | Homo sapiens | cell viability, resazurin or CellTiter-Glo | sample D BCP-ALL PDX cells, ex vivo |  |  | IC50 | 67.2 µM |
| CC[C@H](C)[C@H](NC(=O)[C@H](CC(C)C)NC(=O)[C@@H]1CCCN1C(=O)[C@@H](N)CC(C)C)C(=O)N[C@H](C(=O)N[C@@H](Cc1ccccc1)C(=O)N[C@@H](CC(C)C)C(=O)N[C@@H](CCCNC(=N)N)C(=O)N[C@@H](CC(N)=O)C(=O)N[C@@H](CCCNC(=N)N)C(=O)N[C@@H](CC(C)C)C(=O)N[C@@H](CCCCN)C(=O)N[C@@H](Cc1ccc(O)cc1)C(=O)O)[C@@H](C)CC | Micrococcus luteus |  | NCTC 2665 |  |  | MBC | 32 µg/mL (≈ 19.3 µM) |
| COP(=O)(OC)C(O)C(Cl)(Cl)Cl (stereo not shown) | Drosophila melanogaster | fluorescence |  | liquid food, 40 µg/mL, first instar larvae | relative to: solvent | fluorescein ingestion | -38.3% |
| CS(=O)(=O)CCCn1c(Cn2c(=O)n(CC(F)(F)F)c3ccncc32)cc2cc(Cl)ccc21 | respiratory syncytial virus | RT-qPCR | hospitalized infants 1-24 months, nasal swab | oral, 6, 4.5 or 3 mg/kg daily, day 14, mid dose by age cohort | relative to: placebo | LS mean difference vs placebo | -0.64 log10 copies/mL |
| O=C(NNc1ccc(F)c(F)c1)c1nnc(CC23CC4CC(CC(C4)C2)C3)o1 | Botryosphaeria dothidea | fungal growth, inhibitor |  | 50 µg/mL |  | inhibition | 100% |
| Cl.N/C(CC(O)c1cc2c(F)cc(F)cc2c2cc(C(F)(F)F)ccc12)=N\c1ccc(F)cc1 (stereo not shown) | Plasmodium berghei | Peters test | ANKA, mice | oral, 4 x 30 mg/kg |  | mean survival time | 30 days |
| Nc1nc(O)c2ncn(COC(CO)CO)c2n1 | human cytomegalovirus | viral cytopathic effect | HEL, Davis |  |  | EC50 | 3.15 µM |
| CNC(=O)c1cc(Cl)cc(C)c1NC(=O)c1cc(Br)nn1-c1ncccc1Cl | Plutella xylostella | larvicidal activity | Raphanus sativus open field | 25 ppm, 168 h, wettable granule formulation |  | mortality | 92.3% |
| CN(C)c1nc(NCc2cccc(C(F)(F)F)c2)c(/N=N/c2ccc(Cl)cc2)c(N(C)C)n1 | Plutella xylostella | leaf dipping |  | 200 mg/L, 96 h |  | mortality | 70 ± 5.3% |
| CC[C@H](C)[C@H](NC(=O)[C@H](C)NC(=O)[C@H](CCCCN)NC(=O)[C@H](CC(C)C)NC(=O)[C@H](C)NC(=O)[C@@H](NC(=O)[C@H](Cc1c[nH]cn1)NC(=O)[C@H](CC(C)C)NC(=O)[C@@H](NC(=O)[C@@H](NC(=O)[C@H](CCCCN)NC(=O)[C@H](C)NC(=O)[C@H](C)NC(=O)[C@H](CO)NC(=O)[C@H](CCCCN)NC(=O)[C@H](Cc1ccccc1)NC(=O)[C@@H](NC(=O)[C@H](CCCCN)NC(=O)[C@H](CC(C)C)NC(=O)[C@H](Cc1ccccc1)NC(=O)[C@H](CO)NC(=O)[C@H](CCCCN)NC(=O)[C@H](Cc1c[nH]c2ccccc12)NC(=O)[C@H](CCCCN)NC(C)=O)[C@@H](C)O)[C@@H](C)O)C(C)C)[C@@H](C)O)C(=O)N[C@@H](CO)C(=O)N[C@@H](CO)C(N)=O | Acinetobacter baumannii |  | IPM-R | 87 strains |  | MIC50 | 4 µg/mL (≈ 1.36 µM) |
| O=[N+]([O-])c1cc2cc3ccc4oc([N+](=O)[O-])cc4c3cc2o1 | Mycobacterium marinum | REMA | ATCC BAA-535 |  |  | MIC90 | 0.03 µg/mL (≈ 0.101 µM) |
| Cl.N=C(CC(O)c1cc2c(F)cc(F)cc2c2cc(C(F)(F)F)ccc12)Nc1ccc(Br)cc1 (stereo not shown) | Plasmodium berghei | Peters test | ANKA, mice | oral, 4 x 50 mg/kg |  | mean survival time | 30 days |
| CC(C)(C)NC(=O)[C@@H](N)Cc1ccc(OP2(=O)CO[C@@H](Cn3ccc(N)nc3=O)CO2)cc1 (stereo partly shown) | human cytomegalovirus | viral replication |  |  |  | IC50 | 0.1 µM |

A few entries again:
| SMILES | organism | test | test system | setting | how to read | quantity | value |
| --- | --- | --- | --- | --- | --- | --- | --- |
| COP(=O)(OC)C(O)C(Cl)(Cl)Cl (stereo not shown) | Drosophila melanogaster | fluorescence |  | liquid food, 40 µg/mL, first instar larvae | relative to: solvent | fluorescein ingestion | -38.3% |
| CS(=O)(=O)CCCn1c(Cn2c(=O)n(CC(F)(F)F)c3ccncc32)cc2cc(Cl)ccc21 | respiratory syncytial virus | RT-qPCR | hospitalized infants 1-24 months, nasal swab | oral, 6, 4.5 or 3 mg/kg daily, day 14, mid dose by age cohort | relative to: placebo | LS mean difference vs placebo | -0.64 log10 copies/mL |
